{"data": "Assay results collected from several papers", "note": "“And” joins repeats or separate records; there may be more than shown. Numbers after ± are the reported error."}
{"Structure (SMILES)": "CN(C)c1nc(NCc2cc(Cl)c(F)cc2F)c(/N=N/c2ccc(Cl)cc2)c(N(C)C)n1", "organism": "Ostrinia furnacalis", "assay": "leaf dipping", "conditions": "200 mg/L, 96 h", "quantity": "mortality", "value": "50 ± 10%"}
{"Structure (SMILES)": "CC(C)C[C@H](NC(=O)[C@@H](N)CO)C(=O)N[C@@H](Cc1c[nH]c2ccccc12)C(=O)N[C@@H](CCC(=O)O)C(=O)N[C@@H](CC(N)=O)C(=O)N[C@@H](Cc1ccccc1)C(=O)N[C@@H](CCCCN)C(N)=O", "organism": "Gram-positive bacteria", "quantity": "geometric mean MIC", "value": "256 µM"}
{"Structure (SMILES)": "CCN1CCN(Cc2ccc(CNc3nc(N(C)C)nc(N(C)C)c3/N=N/c3ccc(Cl)cc3)cc2)CC1", "organism": "Ostrinia furnacalis", "assay": "leaf dipping", "conditions": "500 mg/L, 96 h", "quantity": "mortality", "value": "100%"}
{"Structure (SMILES)": "COC1(OC)CC[C@@]2(C)[C@H](CC[C@@H]3[C@@H]2CC[C@]2(C)[C@@H](C4=CC(=O)OC4)CC[C@]32O)C1", "organism": "Schistosoma mansoni", "assay": "microscopic viability score", "system": "newly transformed schistosomula", "conditions": "10 µM, 72 h", "quantity": "viability reduction", "value": "32.3%"}
{"Structure (SMILES)": "Fc1cccc(COc2ccc(Nc3ncnc4ccc(-c5cccc(N6CCSCC6)c5)cc34)cc2Cl)c1", "organism": "Trypanosoma cruzi", "assay": "intracellular amastigote growth, β-galactosidase CPRG", "system": "3T3, Tulahuen, β-galactosidase-expressing", "conditions": "10 µM, 96 h", "quantity": "inhibition", "value": "55%"}
{"Structure (SMILES)": "CCC(=O)OCCSC[C@H](N)C(=O)N[C@H](CCN)C(=O)N[C@@H](CCN)C(=O)N[C@@H](CCN)C(=O)N[C@@H](CC(C)C)C(=O)N[C@H](Cc1ccccc1)C(=O)N[C@@H](CCN)C(=O)N[C@@H](CCN)C(=O)N[C@@H](CC(C)C)C(N)=O", "organism": "Acinetobacter calcoaceticus", "assay": "BHI agar spot plating", "conditions": "24 h, 37 °C", "quantity": "MBC", "value": "> 128 µM"}
{"Structure (SMILES)": "CC[C@H](C)[C@@H]1NC(=O)[C@H](CO)NC(=O)C(C)(CCCCN)NC(=O)[C@@H]2CSSC[C@@H](C(=O)N[C@@H](Cc3ccc(O)cc3)C(N)=O)NC(=O)[C@H](CCCCN)NC(=O)[C@@H]3CSSC[C@H](NC(=O)[C@H](CCCNC(=N)N)NC(=O)C(C)(CC(C)C)NC(=O)[C@H](CC(=O)O)NC(=O)[C@H](CC(=O)O)NC(=O)[C@H](CCC(=O)O)NC(=O)[C@H](CC(N)=O)NC(=O)[C@H](Cc4c[nH]c5ccccc45)NC(=O)C(C)(CC)NC(=O)CNC(=O)[C@H](CC(N)=O)NC(=O)[C@@H](NC(=O)CNC(=O)[C@H](Cc4ccccc4)NC(=O)CN)CSSC[C@H](NC(=O)[C@H](Cc4ccc(O)cc4)NC(=O)CNC(=O)CNC(=O)[C@H](CCCCN)NC(=O)[C@H](Cc4ccc(O)cc4)NC(=O)[C@H]4CCCN4C(=O)[C@@H]4CCCN4C1=O)C(=O)N[C@@H](C)C(=O)N[C@@H](CCCCN)C(=O)N1CCC[C@@H]1C(=O)NCC(=O)N[C@@H](Cc1ccccc1)C(=O)N[C@@H](C(C)C)C(=O)N3)C(=O)N[C@@H](Cc1c[nH]cn1)C(=O)NC(C)(C)C(=O)N[C@@H](Cc1c[nH]cn1)C(=O)N2 (some centres unmarked)", "organism": "Streptococcus pneumoniae", "system": "19F", "conditions": "24 h", "quantity": "MBC", "value": "2 µM"}
{"Structure (SMILES)": "Cc1cc(N2CCC(C#N)(C3(C)CC3)C2=O)cc(C(=O)NCc2cc(F)cc(-c3cnn(C)c3)c2)n1 (racemic)", "organism": "Plasmodium falciparum", "assay": "parasite growth, [3H]hypoxanthine incorporation", "system": "Dd2 Pfpi4k mutant", "quantity": "IC50", "value": "18 nM"}
{"Structure (SMILES)": "CCOC(=O)C1(Cc2ccccc2)Oc2cc(C)ccc2N(Cc2ccccc2)C1=O (centres unmarked)", "organism": "Setaria viridis", "assay": "fresh weight, greenhouse postemergence", "conditions": "postemergence, 150 g ai/ha, 21 days", "quantity": "inhibition", "value": "32.8 ± 2.09%"}
{"Structure (SMILES)": "CC(=O)CCC1C(=O)NC(C(C)C)C(=O)NC(Cc2cc(O)cc(F)c2)C(=O)N2CCCC(N2)C(=O)OC(C(C)=CC=CC(=O)N2CCCCO2)CC=CC=CC(O)C(C)C1O (centres unmarked)", "organism": "Hepatitis C virus", "assay": "viral replication", "system": "Huh7, Con1 replicon", "conditions": "40% fetal bovine serum", "quantity": "EC50", "value": "14 ± 2 nM"}
{"Structure (SMILES)": "CC(C)[C@H]1NC(=O)[C@H](Cc2ccc(O)cc2)NC(=O)[C@@H](C(C)C)NC(=O)[C@@H](C)NC(=O)[C@H](CO)NC(=O)[C@@H](Cc2c(-c3ccc(-c4ccc5ccccc5c4)cc3)[nH]c3ccccc23)NC(=O)[C@@H](CO)NC1=O", "organism": "Mycobacterium marinum", "quantity": "MIC90", "value": "30.2 µM"}
{"Structure (SMILES)": "CC1(C)C(NC(=O)C(=NOC2(C(=O)O)CC2)c2csc(N)n2)C(=O)N1OS(=O)(=O)O (centres unmarked)", "organism": "Klebsiella pneumoniae", "system": "ATCC BAA-2146, NDM-1, ICR mice, systemic lethal infection", "conditions": "intravenous, 32 mg/kg, 7 days", "quantity": "survival rate", "value": "60%"}
{"Structure (SMILES)": "CCCCCCCCCCCC(=O)C(C)C(=O)N1CCC[C@H]1C(=O)NC(C)(C)C(=O)NC(C)(C)C(=O)NC(C)(C)C(=O)N[C@](C)(CC)C(=O)NCCC(=O)N[C@@H](C)C(=O)N[C@](C)(CC)C(=O)N[C@@H](C)C(=O)N[C@@H](CC(C)C)C(=O)N[C@](C)(CC)C(=O)NCCC(=O)N[C@@H](C)C(=O)N[C@](C)(CC)C(=O)NCCC(=O)N[C@@H](C)C(=O)NC(C)(C)C(=O)NC(C)(C)C(=O)NC(C)(C)C(=O)N[C@@H](C)C(=O)N[C@@H](CC(=O)O)C(=O)O (some centres unmarked)", "organism": "Candidozyma auris", "system": "CBS 12775, infected Caenorhabditis elegans", "conditions": "1× MIC", "how to read": "reference: cpd over DMSO", "quantity": "median survival ratio", "value": 1.67}
{"Structure (SMILES)": "CN1CCN(c2cccc(-c3ccc4ncnc(Nc5ccc(OCc6cccc(F)c6)c(Cl)c5)c4c3)c2)CC1", "organism": "Trypanosoma cruzi", "assay": "intracellular amastigote growth, β-galactosidase CPRG", "system": "3T3, Tulahuen, β-galactosidase-expressing", "conditions": "10 µM, 96 h", "quantity": "inhibition", "value": "72%"}
{"Structure (SMILES)": "CC(O)CN.O=C(O)C(Cl)Cl", "organism": "Chenopodium album", "assay": "herbicidal activity", "conditions": "15 mg/mL, 21 days, post-emergence greenhouse", "quantity": "inhibition", "value": "73%"}
{"Structure (SMILES)": "Cc1cc(C(=O)Nc2nc3cccc(C)c3n2[C@H]2CCCCN(C(=O)/C=C/CN(C)C)C2)ccn1", "organism": "Trypanosoma brucei", "assay": "cell growth, Alamar Blue", "system": "2T1 overexpressing Tb927.9.10920", "how to read": "reference: parental 2T1", "quantity": "EC50 fold shift", "value": "0.82 fold and 0.76 fold"}
{"Structure (SMILES)": "CN(C(=O)c1ccn2ncc(-c3ccc(C(N)=O)cc3)c2c1)c1ccc(C#N)cn1", "organism": "Cryptosporidium parvum", "system": "UGA1 Nluc, IFN-gamma knockout C57BL/6 mice, faeces", "conditions": "oral, 10 mg/kg daily, 72 h post infection, treatment days 11-17", "how to read": "higher means more parasites", "quantity": "faecal Nluc luminescence", "value": "37 a.u. and 52 a.u. and 83 a.u. and 110 a.u."}
{"Structure (SMILES)": "Oc1cc(Cl)ccc1Oc1ccc(Cl)cc1Cl", "organism": "Mycobacterium marinum", "quantity": "MIC90", "value": "50 µM"}
{"Structure (SMILES)": "CC[C@H](C)[C@@H]1NC(=O)[C@H](CO)NC(=O)[C@H](CCCCN)NC(=O)[C@@H]2CSSC[C@@H](C(=O)N[C@@H](Cc3ccc(O)cc3)C(N)=O)NC(=O)[C@H](CCCCN)NC(=O)[C@@H]3CSSC[C@H](NC(=O)[C@H](CCCNC(=N)N)NC(=O)[C@H](CC(C)C)NC(=O)[C@H](CC(=O)O)NC(=O)[C@H](CC(=O)O)NC(=O)[C@H](CCC(=O)O)NC(=O)[C@H](CC(N)=O)NC(=O)[C@H](Cc4c[nH]c5ccccc45)NC(=O)C(C)(CC)NC(=O)CNC(=O)[C@H](CC(N)=O)NC(=O)[C@@H](NC(=O)CNC(=O)[C@H](Cc4ccccc4)NC(=O)CN)CSSC[C@H](NC(=O)[C@H](Cc4ccc(O)cc4)NC(=O)CNC(=O)CNC(=O)[C@H](CCCCN)NC(=O)[C@H](Cc4ccc(O)cc4)NC(=O)[C@H]4CCCN4C(=O)[C@@H]4CCCN4C1=O)C(=O)N[C@@H](C)C(=O)N[C@@H](CCCCN)C(=O)N1CCC[C@@H]1C(=O)NCC(=O)N[C@@H](Cc1ccccc1)C(=O)N[C@@H](C(C)C)C(=O)N3)C(=O)N[C@@H](Cc1c[nH]cn1)C(=O)N[C@@H](CC(N)=O)C(=O)N[C@@H](Cc1c[nH]cn1)C(=O)N2 (some centres unmarked)", "organism": "Streptococcus pneumoniae", "system": "D39", "conditions": "24 h, 37 °C, 99.9% killing", "quantity": "MBC", "value": "2 µM"}
{"Structure (SMILES)": "CC[C@H](C)CCCCC(=O)N[C@@H](CCN)C(=O)N[C@H](C(=O)N[C@@H](CCN)C(=O)N[C@H]1CCNC(=O)[C@H]([C@@H](C)O)NC(=O)[C@H](CCN)NC(=O)[C@H](CCN)NC(=O)[C@H](CC(C)C)NC(=O)[C@@H](CC(C)C)NC(=O)[C@H](CCN)NC1=O)[C@@H](C)O", "organism": "Escherichia coli", "assay": "daily serial passaging", "system": "ATCC 8739", "conditions": "highest sub-MIC, 1 days", "how to read": "reference: initial MIC", "quantity": "MIC fold change", "value": 1}
{"Structure (SMILES)": "Cc1ccc2[nH]c3c(c2c1)CCCC3NCCCc1ccccc1 (centres unmarked)", "organism": "Streptococcus pneumoniae", "conditions": "concentration not given, 10% fetal bovine serum", "how to read": "reference: without serum", "quantity": "MIC fold change", "value": 4}
{"Structure (SMILES)": "FC(F)(F)c1cccc(CNc2nc(NC3CCN(Cc4ccccc4)CC3)c3nc[nH]c3n2)c1", "organism": "Cryptococcus neoformans", "assay": "RNA-seq, measured: VRK1 (CNAG_06161)", "conditions": "48 µg/mL, 3 h", "how to read": "reference: untreated", "quantity": "mRNA fold change", "value": 1.76}
{"Structure (SMILES)": "CCOC(=O)C1(CC#N)Oc2cc(F)ccc2N(CC#N)C1=O (centres unmarked)", "organism": "Setaria viridis", "assay": "fresh weight, greenhouse postemergence", "conditions": "postemergence, 150 g ai/ha, 21 days", "quantity": "inhibition", "value": "59.9 ± 1.44%"}
{"Structure (SMILES)": "Cc1cc(Cl)cc(S(C)(=O)=NC#N)c1NC(=O)c1cc(Br)nn1-c1ncccc1Cl (centres unmarked)", "organism": "Spodoptera litura", "assay": "leaf-dip", "system": "third instar larvae", "conditions": "50 ppm, 48 h", "quantity": "mortality", "value": "3.3%"}
{"Structure (SMILES)": "[O-][N+]1=C(c2ccccc2)C2=NCCN2c2ccccc21", "organism": "Clostridioides difficile", "assay": "microbial growth", "quantity": "MIC90", "value": "0.5 µg/mL"}
{"Structure (SMILES)": "CC(C)[C@H]1NC(=O)[C@H](Cc2ccccc2)NC(=O)[C@@H](C(C)C)NC(=O)[C@@H](C)NC(=O)[C@H](CO)NC(=O)[C@@H](Cc2c(-c3ccc(C4CCCCC4)cc3)[nH]c3ccccc23)NC(=O)[C@@H](CO)NC1=O", "organism": "Mycobacterium marinum", "quantity": "MIC90", "value": "> 100 µM"}
{"Structure (SMILES)": "CN1CCCCC1C(=O)NC(Cc1ccc(-c2ccccc2)cc1)B(O)O (centres unmarked)", "organism": "Plasmodium vivax", "assay": "ex vivo", "system": "Brazilian field isolates", "conditions": "median", "quantity": "IC50", "value": "34 nM"}
{"Structure (SMILES)": "COc1ccc(C2=[N+]([O-])c3ccccc3N3CCCN=C23)cc1", "organism": "Clostridioides difficile", "assay": "microbial growth", "quantity": "MIC90", "value": "8 µg/mL"}
{"Structure (SMILES)": "CC(O)CN(CC(C)O)CC(C)O.O=C(O)C(Cl)Cl (centres unmarked)", "organism": "Chenopodium album", "assay": "herbicidal activity", "conditions": "15 mg/mL, 21 days, pre-emergence greenhouse", "quantity": "inhibition", "value": "0%"}
{"note": "Repeated from above:"}
{"Structure (SMILES)": "COC1(OC)CC[C@@]2(C)[C@H](CC[C@@H]3[C@@H]2CC[C@]2(C)[C@@H](C4=CC(=O)OC4)CC[C@]32O)C1", "organism": "Schistosoma mansoni", "assay": "microscopic viability score", "system": "newly transformed schistosomula", "conditions": "10 µM, 72 h", "quantity": "viability reduction", "value": "32.3%"}
{"Structure (SMILES)": "CN(C)c1nc(NCc2cc(Cl)c(F)cc2F)c(/N=N/c2ccc(Cl)cc2)c(N(C)C)n1", "organism": "Ostrinia furnacalis", "assay": "leaf dipping", "conditions": "200 mg/L, 96 h", "quantity": "mortality", "value": "50 ± 10%"}
{"Structure (SMILES)": "CC(O)CN.O=C(O)C(Cl)Cl", "organism": "Chenopodium album", "assay": "herbicidal activity", "conditions": "15 mg/mL, 21 days, post-emergence greenhouse", "quantity": "inhibition", "value": "73%"}
